Measurements pooled from the literature.
Protocols differ between the studies behind these lines. Values joined by “and” are separate records of one study, mostly repeats; a detail may differ. ± marks the error that the study gave.

CC(C)Cc1ccc(C(C)C(=O)[Se]CC(=O)Nc2cccc(C(F)(F)F)c2)cc1 (stereo not shown)
mean growth percent (NCI60 CNS subpanel; cell growth; 10 µM, 48 h, one-dose): -84.8%

CC(=O)NCCCN(C)CCCNc1cccc2c1C(=O)c1cccc(NCCCN(C)CCCNC(C)=O)c1C2=O
log2 fold change (SAS; RNA-Seq, refers to: SPIN1 mRNA; 1 µM, 6 h; relative to: untreated cells): -0.738

CC1(C)C[C@@H](Nc2cccc(-c3sc(C(=O)O)c(OCC(=O)O)c3Cl)c2)CCN1S(=O)(=O)Cc1cccc(NC(=O)CN2CCC(c3ccc4c(c3)oc(=O)n4C3CCC(=O)NC3=O)CC2)c1 (stereo partly shown)
pSTAT1 level (B16-F10; HTRF, refers to: phospho-STAT1 Tyr701; 10 µM, together with: IFN-γ; relative to: min-max normalised): 86.1% and 82.4% and 89.5% and 89.4% and 87.8% and 79.4%

O=C(NC1CCCC1)c1ccnc(N2Cc3cn(Cc4ccc(F)cc4)nc3C2)n1
IC50 (HEK293 expressing GluA1 and GluA2; glutamate excitotoxic cell death, CellTox Green; together with: glutamate): 0.024 µM

O=C(C[Se]C(=O)c1ccc2ccccc2c1)Nc1cccc(C(F)(F)F)c1
GI50 (HCC 2998; cell growth or viability, SRB): 0.42 µM

COc1ccccc1-c1ccncc1C(=O)Nc1nnc(OCc2ccc(Cl)cc2)s1
colony survival (PEO1 BRCA2-mutant; 0.5 µM, together with: olaparib 0 µM; relative to: vehicle control): 60.2%

COc1ccc(NC(=O)c2ccc3[nH]c(-c4ccc(N(C)C)cc4)nc3c2)cn1
reporter activity (HCT-116; refers to: NF-κB luciferase reporter; concentration not given, unit not given; relative to: DMSO): 2.23 and 1.79 and 3.5

CC(=O)Oc1ccccc1C(=O)[Se]CC(=O)Nc1cccc(C(F)(F)F)c1
GI50 (NCI60 leukaemia subpanel; NCI60 five-dose screen): 4.27 µM

COC(=O)c1cc(NC2=NC(=O)C(=Cc3ccc(N(C)C)cc3)S2)ccc1OC(C)=O
metabolite level (MCF7; GC-MS, refers to: Serine; 1 µM; relative to: DMSO): -0.9 fold change

O=C(C[Se]C(=O)c1cc2ccccc2[nH]1)Nc1cccc(C(F)(F)F)c1
mean TGI (NCI60 CNS subpanel; NCI60 five-dose screen): 3.02 µM

C=CC(=O)Nc1cc(Nc2nccc(-c3c(-c4ccc(OC)cc4)n(C)c4ccccc34)n2)c(OC)cc1N(C)CCN(C)C
inhibition (NCI-H1975; cell growth or viability, MTT; 0.5 µM, 72 h): 59.9%

CO[C@@H]1[C@@H](OC(N)=O)[C@@H](O)[C@H](Oc2ccc3c(O)c(NC(=O)c4ccc(O)c(CC=C(C)C)c4)c(=O)oc3c2C)OC1(C)C
colony count (HCT-116 parental; 300 µM, replicate 1): 0.1

CCc1n(CC(=O)O[C@@H]2C[C@H](C)CC[C@H]2C(C)C)c2ccccc2[n+]1C
mRNA level (HTS cells (mouse); gene microarray, refers to: TRIB3; 1 µM, 6 h, unit not given; relative to: untreated): 5.76

Cc1ccc(C(=O)/C=C/c2ccccc2)s1
growth inhibition (HOP-62; SRB; 10 µM): < 0%

CN1CCCNC(=O)c2cccc(c2)C(=O)NCCCN(C)CCCNc2cccc3c2C(=O)c2cccc(c2C3=O)NCCC1
log2 fold change (SAS; RNA-seq, refers to: RXYLT1-AS1 mRNA; 1 µM, 6 h; relative to: untreated cells): 0.73

COc1ccc2c(c1)OC1=C(C(=O)CCC1)C2c1c[nH]c2ccccc12 (stereo not shown)
lipid content (3T3-L1 preadipocytes; adipogenesis, Oil Red O staining; IC20, 14 days, single replicate): 0.501 OD492

C1=[N+]2CCCC[N+]3=Cc4ccc5[n]4[Au-]23[n]2c1ccc2-c1nc2ccccc2nc1-5.F[P-](F)(F)(F)(F)F
TGI (UACC-257; NCI60 five-dose screen): 4 -log M

C=C(NC(=O)C(=C)NC(=O)c1csc(C2=N[C@@H]3c4csc(n4)[C@H]4NC(=O)c5csc(n5)[C@H]([C@](C)(O)[C@@H](C)O)NC(=O)[C@H]5CSC(=N5)/C(=C/C)NC(=O)[C@H]([C@@H](C)O)NC(=O)c5csc(n5)[C@]3(CC2)NC(=O)[C@H](C)NC(=O)C(=C)NC(=O)[C@H](C)NC(=O)[C@H]([C@@H](C)CC)N[C@@H]2C=Cc3c([C@H](C)O)cc(nc3[C@H]2O)C(=O)O[C@@H]4C)n1)C(N)=O
EC50 (H-MESO-1; cell viability, crystal violet; 6 h exposure, 48 h total): 1.7 µM

CC(C)(C)c1nc(-c2cccc(NS(=O)(=O)c3c(F)cccc3F)c2F)c(-c2ccnc(N)n2)s1.Cc1[nH]c2ccccc2c1CCNCc1ccc(/C=C/C(=O)NO)cc1
early apoptotic cells (A2780/CP; annexin V/PI flow cytometry; concentration not given, 48 h; relative to: control subtracted): 39.9 ± 5.2%

COc1ccc(Cn2cc3c(n2)CN(c2cccc(C(=O)N(C)C)c2)C3)cc1
IC50 (HEK293 expressing GluA1 and GluA2; glutamate excitotoxic cell death, CellTox Green; together with: glutamate): 0.062 µM

O=C(C[Se]C(=O)c1ccccc1Nc1ccccc1)Nc1cccc(C(F)(F)F)c1
GI50 (NCI60 leukaemia subpanel; NCI60 five-dose screen): 1.73 µM

COC(=O)c1cccc(N2Cc3cnn(Cc4ccc(F)cc4)c3C2)c1
IC50 (HEK293 expressing GluA1 and GluA2; glutamate excitotoxic cell death, CellTox Green; together with: glutamate): 0.361 µM

COc1cc(N(C)CCN(C)C)c(NC(=O)/C=C/c2ccc3nc(C)ccc3c2)cc1Nc1nccc(-c2cn(C)c3ccccc23)n1
inhibition (NCI-H1975; cell growth or viability, MTT; 0.5 µM, 72 h): 72.5%

CN1CCC(N[C@@H]2CCc3[nH]c4c(C(N)=O)ccc(-c5ccccc5Cl)c4c3C2)CC1
IC50 (K562/DOX, doxorubicin-resistant; cell growth, CellTiter-Glo; 96 h): 0.0305 µM

COCCCCCNc1nc(NCCCCCCN(C)C)c2cc(NC(=O)/C=C/CN(C)C)ccc2n1
viability (MCF7; CellTiter-Glo; 3.125 µM, 24 h, unit not given; relative to: DMSO-treated cells): 1.06 and 1.02 and 0.97

Cn1ncc2cc(-c3cncc(Cl)c3N3CCC4(CCNC4=O)CC3)ccc21
log2 fold change (LS174T; gene expression, microarray, refers to: SPAG4 mRNA; concentration not given, 4 h; relative to: untreated cells): 1.77

CCOC(=O)c1ccc(NC(=O)C(C#N)=C2C(=O)c3ccccc3C2=O)cc1
viability (HepG2; cell growth or viability, MTT; 100 µM, 24 h): 26.5%

C=CC(=O)N1[C@H](c2ccc3c(c2)OCO3)c2[nH]c3ccccc3c2C[C@@H]1C(=O)NC1CC1
neuron degeneration (rat DRG neurons; 1.111 µM, 48 h, together with: vincristine 40 nM): 22.4% and 21.8%

CCN(CC)CC(=O)Nc1cccc(-n2cc(-c3ccc4ccc(-c5cn(-c6cccc(NC(=O)CN(CC)CC)c6)nn5)cc4c3)nn2)c1
fold regulation (RCC4; PCR angiogenesis array, refers to: TNF; 5 x IC50, 6 h, normoxia; relative to: untreated): -2.43 fold

COc1ccc(CSC2C3=C(CCCC3=O)Oc3ccc(Br)cc32)cc1 (stereo not shown)
mean lipid content (3T3-L1 preadipocytes; adipogenesis, Oil Red O staining; IC20, 14 days): 0.866 OD492

N#Cc1cccc(/C=C/C(=O)c2ccc(O)cc2)c1
fold change (U-87 MG; refers to: HSPA6; concentration not given; relative to: untreated): 876

O=C(C[Se]C(=O)c1cc2ccccc2s1)Nc1cccc(C(F)(F)F)c1
GI50 (NCI60 leukaemia subpanel; NCI60 five-dose screen): 1.35 µM

C=CC(=O)Nc1cc(Nc2nccc(-c3c(-c4ccc(-c5cccc6ccccc56)cc4)n(C)c4ccccc34)n2)c(OC)cc1N(C)CCN(C)C
inhibition (NCI-H1975; cell growth or viability, MTT; 0.5 µM, 72 h): 58.3%

COc1ccccc1-c1ccncc1C(=O)Nc1ccc(OCc2ccc(Cl)cc2)nn1
colony survival (DLD-1 BRCA2 knock-out; colony formation; 40 µM; relative to: untreated control): 29.4%

O=C(C[Se]C(=O)c1cc2ccccc2o1)Nc1cccc(C(F)(F)F)c1
mean TGI (NCI60 CNS subpanel; NCI60 five-dose screen): 3.21 µM

C=CC(=O)Nc1cc(Nc2nccc(-c3c(-c4cccc(F)c4)n(C)c4ccccc34)n2)c(OC)cc1N(C)CCN(C)C
inhibition (NCI-H1975; cell growth or viability, MTT; 0.5 µM, 72 h): 70.4%

CCCCCCc1cccc([C@H](O)C[C@H](CO)NC(=O)CCCCCCCCCCBr)c1
lactosylceramide level (HeLa; CERT activity, HPLC-MS/MS lipidomics, refers to: lactosylceramide 16; 1 µM, 24 h, not cell-number normalised): 27700 pmol/sample and 30000 pmol/sample and 21100 pmol/sample

O=C(C[Se]C(=O)c1ccc2ccccc2n1)Nc1cccc(C(F)(F)F)c1
mean TGI (NCI60 melanoma subpanel; total growth inhibition, inhibitor; five-dose): 3.72 µM

COc1cc(N(C)CCN(C)C)c(NC(=O)/C=C/c2ccc([Si](C)(C)C)cc2)cc1Nc1nccc(-c2cn(C)c3ccccc23)n1
inhibition (NCI-H1975; cell growth or viability, MTT; 0.5 µM, 72 h): 56.5%

Cc1ncsc1-c1ccc(C(C)NC(=O)C2CC(O)CN2C(=O)C(NC(=O)CCCCCCCCCCN2CCCC(Nc3ncc(Cl)c(Nc4ccccc4S(=O)(=O)C(C)C)n3)C2)C(C)(C)C)cc1 (stereo not shown)
log2 fold change (22Rv1; RNA-seq, refers to: MAF; concentration not given; relative to: DMSO): -1.25

CNS(=O)(=O)Nc1nccc(Cc2c(C)c3ccc(Oc4ncccc4F)cc3oc2=O)c1F
IC50 (SU-DHL-5; cell viability; 7 days): > 1 µM

CCCC[N+]1=c2cc3c4cc2[O][Mn-2]1(=[C]=O)(=[C]=O)(=[C]=O)[n+]1ccc(cc1)C(=O)Oc1ccccc1OC(=O)c1cc[n+](cc1)[Mn-2](=[C]=O)(=[C]=O)(=[C]=O)([O]3)[N+]=4CCCC
viability reduction (HCT-15; MTT; 50 µM, 48 h, photolysed compound): 83%

CC(C)c1ccc(N(C)c2ccc3c(c2)OCC[C@H]3CNc2cnccc2C(=O)O)cc1
IC50 (NCI-H520; cell growth or viability, ATP luminescence; 7 days): 0.0059 µM

Excerpt of the above:
COc1cc(N(C)CCN(C)C)c(NC(=O)/C=C/c2ccc([Si](C)(C)C)cc2)cc1Nc1nccc(-c2cn(C)c3ccccc23)n1
inhibition (NCI-H1975; cell growth or viability, MTT; 0.5 µM, 72 h): 56.5%

Cc1ccc(C(=O)/C=C/c2ccccc2)s1
growth inhibition (HOP-62; SRB; 10 µM): < 0%

O=C(NC1CCCC1)c1ccnc(N2Cc3cn(Cc4ccc(F)cc4)nc3C2)n1
IC50 (HEK293 expressing GluA1 and GluA2; glutamate excitotoxic cell death, CellTox Green; together with: glutamate): 0.024 µM

O=C(C[Se]C(=O)c1cc2ccccc2s1)Nc1cccc(C(F)(F)F)c1
GI50 (NCI60 leukaemia subpanel; NCI60 five-dose screen): 1.35 µM
